Assay results pooled from the literature.
Numbered parts are unrelated; each lists some results of a single study.

Sequences of proteins named here, by UniProt entry; tags and fusion partners are left off.
UniProt P15056, whole entry E586K: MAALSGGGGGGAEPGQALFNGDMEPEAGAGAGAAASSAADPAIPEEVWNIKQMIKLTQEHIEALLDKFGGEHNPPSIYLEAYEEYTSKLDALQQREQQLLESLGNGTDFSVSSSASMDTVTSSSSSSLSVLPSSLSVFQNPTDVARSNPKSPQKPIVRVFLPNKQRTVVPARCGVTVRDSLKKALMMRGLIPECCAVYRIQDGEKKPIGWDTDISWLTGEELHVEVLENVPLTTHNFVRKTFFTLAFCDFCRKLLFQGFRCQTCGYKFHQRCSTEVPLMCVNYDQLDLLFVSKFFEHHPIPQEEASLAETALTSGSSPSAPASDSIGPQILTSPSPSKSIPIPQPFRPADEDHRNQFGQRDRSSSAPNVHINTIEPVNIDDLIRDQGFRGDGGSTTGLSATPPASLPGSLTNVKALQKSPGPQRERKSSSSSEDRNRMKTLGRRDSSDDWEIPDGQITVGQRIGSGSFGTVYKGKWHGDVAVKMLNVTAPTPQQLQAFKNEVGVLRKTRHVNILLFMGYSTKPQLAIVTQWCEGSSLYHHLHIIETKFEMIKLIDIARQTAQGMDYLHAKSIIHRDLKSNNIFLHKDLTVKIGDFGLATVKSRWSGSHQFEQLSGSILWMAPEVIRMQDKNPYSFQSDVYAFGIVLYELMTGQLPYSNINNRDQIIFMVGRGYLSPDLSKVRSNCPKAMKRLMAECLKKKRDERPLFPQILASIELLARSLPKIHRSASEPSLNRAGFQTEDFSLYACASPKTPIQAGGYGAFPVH
UniProt P42679, whole entry: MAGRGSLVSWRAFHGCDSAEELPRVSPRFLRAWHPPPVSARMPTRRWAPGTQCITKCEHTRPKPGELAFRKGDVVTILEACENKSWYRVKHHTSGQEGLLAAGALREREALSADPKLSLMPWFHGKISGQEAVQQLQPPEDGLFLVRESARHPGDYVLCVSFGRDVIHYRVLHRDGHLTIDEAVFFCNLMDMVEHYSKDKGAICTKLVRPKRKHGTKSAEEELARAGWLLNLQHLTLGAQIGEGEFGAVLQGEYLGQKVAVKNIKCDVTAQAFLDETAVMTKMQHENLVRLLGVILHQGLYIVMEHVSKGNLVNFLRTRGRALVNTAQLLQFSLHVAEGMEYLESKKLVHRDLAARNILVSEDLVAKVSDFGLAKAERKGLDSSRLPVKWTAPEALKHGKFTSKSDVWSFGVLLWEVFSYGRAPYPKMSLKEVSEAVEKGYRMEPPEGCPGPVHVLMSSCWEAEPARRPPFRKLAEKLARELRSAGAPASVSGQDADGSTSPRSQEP
UniProt P48730, whole entry: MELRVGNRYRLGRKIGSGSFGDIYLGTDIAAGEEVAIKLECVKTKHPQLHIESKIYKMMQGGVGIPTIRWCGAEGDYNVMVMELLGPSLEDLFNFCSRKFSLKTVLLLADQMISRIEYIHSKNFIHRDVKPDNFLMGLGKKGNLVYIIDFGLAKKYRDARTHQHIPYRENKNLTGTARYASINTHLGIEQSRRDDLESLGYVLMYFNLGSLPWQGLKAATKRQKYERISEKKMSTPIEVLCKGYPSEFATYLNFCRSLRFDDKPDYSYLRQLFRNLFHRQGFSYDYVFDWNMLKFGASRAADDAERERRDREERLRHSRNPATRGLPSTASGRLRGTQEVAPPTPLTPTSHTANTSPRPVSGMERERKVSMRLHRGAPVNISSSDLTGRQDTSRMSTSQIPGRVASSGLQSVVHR
UniProt Q13555, whole entry: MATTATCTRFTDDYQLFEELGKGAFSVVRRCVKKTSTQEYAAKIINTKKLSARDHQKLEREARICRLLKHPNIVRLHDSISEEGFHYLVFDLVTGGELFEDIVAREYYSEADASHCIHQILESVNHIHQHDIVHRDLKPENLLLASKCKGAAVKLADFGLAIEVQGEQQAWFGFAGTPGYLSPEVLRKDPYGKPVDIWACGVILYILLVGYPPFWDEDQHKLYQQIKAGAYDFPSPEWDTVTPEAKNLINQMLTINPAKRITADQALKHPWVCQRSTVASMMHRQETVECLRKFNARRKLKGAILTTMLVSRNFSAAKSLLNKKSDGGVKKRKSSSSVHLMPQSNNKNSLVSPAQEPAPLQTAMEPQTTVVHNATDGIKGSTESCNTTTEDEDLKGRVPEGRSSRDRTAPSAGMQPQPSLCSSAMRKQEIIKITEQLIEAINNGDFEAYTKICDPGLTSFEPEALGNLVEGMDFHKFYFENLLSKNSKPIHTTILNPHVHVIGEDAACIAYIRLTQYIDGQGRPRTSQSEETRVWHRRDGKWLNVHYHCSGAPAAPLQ
UniProt P04150, whole entry: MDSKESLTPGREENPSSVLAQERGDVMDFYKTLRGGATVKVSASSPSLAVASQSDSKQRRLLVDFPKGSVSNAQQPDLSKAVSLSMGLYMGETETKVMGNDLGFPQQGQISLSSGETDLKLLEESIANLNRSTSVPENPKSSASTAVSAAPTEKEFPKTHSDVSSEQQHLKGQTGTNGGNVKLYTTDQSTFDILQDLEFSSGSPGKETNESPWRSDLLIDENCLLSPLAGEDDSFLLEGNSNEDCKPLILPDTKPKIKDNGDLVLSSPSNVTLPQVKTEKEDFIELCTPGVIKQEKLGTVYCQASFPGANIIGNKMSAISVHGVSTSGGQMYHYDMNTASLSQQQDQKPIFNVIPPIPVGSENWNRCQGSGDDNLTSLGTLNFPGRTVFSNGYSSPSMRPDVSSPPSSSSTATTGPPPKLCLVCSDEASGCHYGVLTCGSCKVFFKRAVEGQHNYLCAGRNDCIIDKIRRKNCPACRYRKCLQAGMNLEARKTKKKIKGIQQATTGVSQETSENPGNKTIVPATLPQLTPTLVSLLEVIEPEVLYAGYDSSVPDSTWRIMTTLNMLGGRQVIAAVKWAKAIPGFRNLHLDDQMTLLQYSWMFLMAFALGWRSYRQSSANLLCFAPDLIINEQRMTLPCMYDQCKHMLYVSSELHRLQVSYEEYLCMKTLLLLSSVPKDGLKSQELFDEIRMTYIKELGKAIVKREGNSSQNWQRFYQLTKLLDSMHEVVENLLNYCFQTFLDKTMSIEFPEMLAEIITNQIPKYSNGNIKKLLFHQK

Study 1 — action: inhibitor; tested at: 5 µM; quantity: log2 fold change
SMILES: CCN1CCN(Cc2ccc(NC(=O)c3ccc(C)c(/C=C/c4cnc5[nH]ccc5c4OC)c3)cc2C(F)(F)F)CC1
BRAF (Homo sapiens, UniProt P15056, E586K); cell-based kinome screen; baseline: vehicle control: -0.262
MATK (Homo sapiens, UniProt P42679); kinome profiling; human cells; baseline: vehicle: 0.613
CSNK1D (Homo sapiens, UniProt P48730); cell-based kinome screen; baseline: vehicle: 0.127
CAMK2G (Homo sapiens, UniProt Q13555); cell-based kinome screen; baseline: vehicle control: -0.087

Other studies, line by line
NR3C1: Glucocorticoid receptor (NR3C1, Homo sapiens, UniProt P04150)
CC(=O)O[C@H]1CC[C@H]2[C@@H]3CCC4=C[C@@H](C5SCCS5)[C@H](OC(C)=O)C[C@]4(C)[C@H]3CC[C@@]12C
EC50 (NR3C1; nuclear translocation, agonist, enzyme fragment complementation): > 9 µM

COc1cc(CC(=O)NCC(NC(=O)C(CCCNC(=O)c2cccc(I)c2)NC(=O)C(Cc2ccc(C(F)(F)P(=O)(O)O)cc2)NC(=O)c2ccc(C)c(Br)c2)C(N)=O)ccc1O (centres unmarked)
IR phosphorylation (primary mouse hepatocytes; Western blot; 1 h, dose-dependent, added: insulin 5 nM, 5 min; baseline: DMSO): increased

C[C@H](CCC(=O)NN)[C@@H]1CC[C@@H]2[C@H]3CC[C@H]4C[C@@H](O)CC[C@@]4(C)[C@@H]3CC[C@]21C
EC50 (NR3C1; nuclear translocation, agonist, enzyme fragment complementation): > 9 µM

CC#C/C(=N\OC[C@H]1COCCN1)c1ccc2ncnc(Nc3ccc(OCc4cccc(F)c4)c(Cl)c3)c2c1
ED50 (tumour growth; Calu-3, mouse subcutaneous xenograft; oral, daily): 31.3 mg/kg
